Published values gathered from unrelated publications.
Each line is one published result; not all experiments were run side by side.
Technique: steady-state kinetics
B1: enzyme H189A (Acetivibrio thermocellus, UniProt A3DJ38); chain MKLTIPELSLVVLIGSSGSGKSTFAKKHFKPTEVISSDFCRGLVSDDENDQTVTGAAFDVLHYIVSKRLQLGKLTVVDATNVQESARKPLIEIAKDYHCFPVAVVFNLPEKVCQERNKNRTDRQVEEYVIRKHTQQLKKSIKGLQREGFRYVYILNSPEEVEEVVFERQPLWNNKKDEHGPFDIIGDIAGCYDELKMLLEKLGYLIEEVEGGVGSGKYRVTHPEGRKVLFLGDLVDRGPKITEVLKLVMGMVKSGIALCVPGNHDVKLLRKLNGRDVQITHGLDRTLEQLAKEPQEFIEEVKAFIDGLVSHYVLDDGKLVVAHAGMKEEFQGRGSGKVREFALYGETTGETDEYGLPVRYDWASDYRGKALVVYGHTPQAEVLKVNNTINIDTGCVFGGKLTAYRYPEREIVDVKALKTYYEPAKPFLPKEDMAERFEARTDNDILDINDVLGKKIITTRLMSSITIHEENSIAALEVMSRFAADPHWLIYLPPTMSPCETSKKEGMLEHPIEAFEYFRTRGVGKVVCEQKHMGSRAVVIVCKDSQVAEKRFGVLDGTAGICYTRTGRHFFDDMQLEAELIDRVRKVLDKSGFWGDFNTDWVCLDCELMPWSAKAQKLLEEQYSAVGISGRVVLDEAVKLLKQASLNKTVSFDVSRQTSGKNADINELLQRFTERSEMMQKYVEAYRKYCWPVNSIDDLKLAPFHILATEGKVHSDKNHIWHMDTIAKYCTQDDSLIMATNHILVDVTDAESVDKGIKWWEDLTASGGEGMVVKPYDFIVKNGRELLQPAVKCRGREYLRIIYGPEYTMDENIERLRNRAVGKKRSLALREFSLGMEALERFVRNEPLYRVHECVFGVLALESEPVDPRL
B2: enzyme L163H/N249W (Thermobifida fusca, UniProt Q47RK4); chain MTDVYILDAVRTPFGRYGGALSGIRPDDLAAHVLRALAERSPGLDPAAVDDVFFGDANGAGEDNRNVARMAALLAGWPTSVPGVTLNRLCGSGMESVIAANRAIAVGDASLAVAGGVESMSRAPWVLPKPAQGFPTGHETLYSTTLGWRMVNPAMPEQWTVSHGESTEQVAATYGISRAEQDAFALRSHERAARAWAEGVFDAEITQIPGAELERDESIRETSAEKLAALKPAFRPDGTITAGNASPLWDGAAALLIGDAAAAERVGREPLARIVSRGVAAVDPDVFGIGPVQAAEIALRRAGIGWDDLSVVELNEAFAAQSLACLKLWPDLDPEIVNPNGGAIAIGHPLGASGARIVGTLAHELHRRGGGWGLAAICIGVGQGLAVVLHR
B3: nitrilase Y142F (Rhodococcus rhodochrous, UniProt A4LA85); chain MVEYTNTFKVAAVQAQPVWFDAAKTVDKTVSIIAEAARNGCELVAFPEVFIPGYPYHIWVDSPLAGMAKFAVRYHENSLTMDSPHVQRLLDAARDHNIAVVVGISERDGGSLYMTQLIIDADGQLVARRRKLKPTHVERSVFGEGNGSDISVYDMPFARLGALNCWEHFQTLTKYAMYSMHEQVHVASWPGMSLYQPEVPAFGVDAQLTATRMYALEGQTFVVCTTQVVTPEAHEFFCENEEQRKLIGRGGGFARIIGPDGRDLATPLAEDEEGILYADIDLSAITLAKQAADPVGHYSRPDVLSLNFNQRRTTPVNTPLSTIHATHTFVPQFGALDGVRELNGADEQRALPSTHSDETDRATASI
B4: protein F432Y (Streptomyces toyocaensis, UniProt Q8KLK7); chain MTTVLPPLEDTDGLWAALTEAAASVEKLLATLPEHGARSSAERAEIAAAHDAARALRVRFLDTHADAVYDRLTDHRRVHLRLAELVEAAATAFPGLVPTQQQLAVERSLPQAAKEGHEIDQGIFLRAVLRSPLAGPHLLDAMLRPTPRALELLPEFVRTGEVEMEAVHLERRDGVARLTMCRDDRLNAEDGQQVDDMETAVDLALLDPGVRVGLLRGGVMSHPRYRGKRVFSAGINLKYLSQGGISLVDFLMRRELGYIHKLVRGVLTNDDRPGWWHSPRIEKPWVAAVDGFAIGGGAQLLLVFDRVLASSDAYFSLPAAKEGIIPGAANLRLGRFAGPRVSRQVILEGRRIWAKEPEARLLVDEVVEPDELDAAIERSLTRLDGDAVLANRRMLNLADESPDGFRAYMAEFALMQALRLYGHDVIDKVGRYGGRPPA
B5: nitrilase Y142A (Rhodococcus rhodochrous, UniProt A4LA85); chain MVEYTNTFKVAAVQAQPVWFDAAKTVDKTVSIIAEAARNGCELVAFPEVFIPGYPYHIWVDSPLAGMAKFAVRYHENSLTMDSPHVQRLLDAARDHNIAVVVGISERDGGSLYMTQLIIDADGQLVARRRKLKPTHVERSVAGEGNGSDISVYDMPFARLGALNCWEHFQTLTKYAMYSMHEQVHVASWPGMSLYQPEVPAFGVDAQLTATRMYALEGQTFVVCTTQVVTPEAHEFFCENEEQRKLIGRGGGFARIIGPDGRDLATPLAEDEEGILYADIDLSAITLAKQAADPVGHYSRPDVLSLNFNQRRTTPVNTPLSTIHATHTFVPQFGALDGVRELNGADEQRALPSTHSDETDRATASI
B6: Lxyl-p1-1 A72T (Lentinula edodes, UniProt G8GLN9); chain YFSGLGLGSERSIFRRDLNSTGDESNSTQWPAPLANGGKSWASAFKKAKSTVTEMTVEELANITSGVIGLCVGVTGAVTRLGIPELCLQDGPIGPRGVHGSSQFPAGLTVAATWDRTLMYARARGMGQEFHDQGVHIALAPVTGGPLGRTPLNGRGWEGTFADPYACGEASYQSVKGLTDAGVATVSKHWIAYEQETSRNLYIEFDGVSQADIQLPISSNVDDLTMHELYMWSFAEAVRAGTNHIMCSYNRINNTHSCNNAKGLNQLLKTELNFQGGVVSDWGGQWDSVLSAENGLDVGMPGEGFLGELGDFWGTTLADLINNGTVSEDLVRDKVVRLLTGYYYLGQDINPPPPFVYNTIGAPTLNATSGYRNVRKPGTAELIKEIGSASVTLLKNTGSLPLKHPQRIAVLGNDATYNVLGPNACGLANSACDIDNLNGTLTTGGGSGSALSPYTITPLEALQKRAIEDNAEIAAVVANSNTTTGAEDAIAALLPDADVTFVFLNRYSEEGADAPDFSLGGDGDNLMDLAVTYSSNVVVVIHTTGVVDIEKWADNPNVTAILVAYLPGQEAGNSLVPVLYGDVAPSGKLPWTWGKSIDDYVPNGVVYTDAYSPQSNFTEGVFIDYRWFDKMGITPRYEFGFGLSYTTFTYSNLIVDHGRWAKDYSSVMETAEPFAEWDGTNSLYDVIFTVFATITNTGNLTGSEVAQLYISIPGDNQPVRQLRGFDKIKDLPVGDSAVVTFPIRRKDVSSWSVVDQLWYVPNGDFLISVGGSSRDLPLNTTWTP
B7: enzyme (Mycolicibacterium smegmatis, UniProt A0QWT3); chain MSKGRLFTSESVTEGHPDKICDAISDSVLDALLEQDPKSRVAVETLVTTGQVHVAGEVTTTAYADIPKIVRDRILDIGYDSSTKGFDGASCGVNVAIGAQSPDIAQGVDTAHETRVEGKADPLDLQGAGDQGLMFGYAIGDTPELMPLPIALAHRLARRLTEVRKNGVLDYLRPDGKTQVTIQYDGTTPVRLDTVVLSTQHADGIDLEGTLTPDIREKVVNTVLADLGHETLDTSDYRLLVNPTGKFVLGGPMGDAGLTGRKIIVDTYGGWARHGGGAFSGKDPSKVDRSAAYAMRWVAKNVVAAGLAERVEVQVAYAIGKAAPVGLFVETFGSETVDPAKIEKAIGEVFDLRPAAIVRDLDLLRPIYAPTAAYGHFGRTDIELPWEQTNKVDDLKSAI
B8: enzyme Q449A (Limosilactobacillus reuteri, UniProt Q8GP32); chain SADTNIENNDSSTVQVTTGDNDIAVKSVTLGSGQVSAASDTTIRTSANANSASSAANTQNSNSQVASSAAITSSTSSAASSNNTDSKAAQENTNTAKNDDTQKAAPANESSEAKNEPAVNVNDSSAAKNDDQQSSKKNTTAKLNKDAENVVKKAGIDPNSLTDDQIKALNKMNFSKAAKSGTQMTYNDFQKIADTLIKQDGRYTVPFFKASEIKNMPAATTKDAQTNTIEPLDVWDSWPVQDVRTGQVANWNGYQLVIAMMGIPNQNDNHIYLLYNKYGDNELSHWKNVGPIFGYNSTAVSQEWSGSAVLNSDNSIQLFYTRVDTSDNNTNHQKIASATLYLTDNNGNVSLAQVANDHIVFEGDGYYYQTYDQWKATNKGADNIAMRDAHVIEDDNGDRYLVFEASTGLENYAGEDQIYNWLNYGGDDAFNIKSLFRILSNDDIKSRATWANAAIGILKLNKDEKNPKVAELYSPLISAPMVSDEIERPNVVKLGNKYYLFAATRLNRGSNDDAWMNANYAVGDNVAMVGYVADSLTGSYKPLNDSGVVLTASVPANWRTATYSYYAVPVAGKDDQVLVTSYMTNRNGVAGKGMDSTWAPSFLLQINPDNTTTVLAKMTNQGDWIWDDSSENLDMIGDLDSAALPGERDKPVDWDLIGYGLKP
Sequence of UniProt P25740 (whole entry, looked up): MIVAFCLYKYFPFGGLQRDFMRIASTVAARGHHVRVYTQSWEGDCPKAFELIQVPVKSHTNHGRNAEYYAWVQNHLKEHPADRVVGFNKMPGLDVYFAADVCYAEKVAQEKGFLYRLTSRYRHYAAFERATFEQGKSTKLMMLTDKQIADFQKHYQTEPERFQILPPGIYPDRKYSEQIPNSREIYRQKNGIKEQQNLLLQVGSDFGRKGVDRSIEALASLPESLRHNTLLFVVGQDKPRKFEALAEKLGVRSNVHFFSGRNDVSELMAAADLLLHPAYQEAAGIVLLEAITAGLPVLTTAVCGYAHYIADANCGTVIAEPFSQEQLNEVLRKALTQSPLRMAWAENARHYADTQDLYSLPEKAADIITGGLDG

| Molecule | substrate | test system | setting | Km |
| --- | --- | --- | --- | --- |
| B1 (enzyme H189A) | Nc1ncnc2c1ncn2[C@@H]1O[C@H](CO)[C@H]2OP(=O)(O)O[C@H]21 |  | pH 7.5, 45 °C | 29000 µM |
| B2 (enzyme L163H/N249W) | CC(=O)SCCNC(=O)CCNC(=O)[C@H](O)C(C)(C)COP(=O)(O)OP(=O)(O)OC[C@H]1O[C@@H](n2cnc3c(N)ncnc32)[C@H](O)[C@@H]1OP(=O)(O)O |  | pH 7.4, 37 °C | 2190 µM |
| protein (Leishmania infantum, UniProt A4I093) | Nc1ncnc2c1ncn2[C@@H]1O[C@H](COP(=O)(O)OP(=O)(O)OP(=O)(O)O)[C@@H](O)[C@H]1O |  | 37 °C, MgCl2 4 mM, mild substrate inhibition, apparent, added: CoA | 230 µM |
| OXA-48 (Klebsiella pneumoniae, UniProt Q6XEC0) | C[C@@H](O)[C@H]1C(=O)N2C(C(=O)O)=C(SCCN=CN)C[C@H]12 |  | pH 7.2, 30 °C | 3.7 µM |
| B3 (nitrilase Y142F) | N#CCCCCC#N |  | pH 7.5, 25 °C | 688 µM |
| B4 (protein F432Y) | CC(C)(COP(=O)(O)OP(=O)(O)OC[C@H]1O[C@@H](n2cnc3c(N)ncnc32)[C@H](O)[C@@H]1OP(=O)(O)O)[C@@H](O)C(=O)NCCC(=O)NCCSC(=O)Cc1cc(O)cc(O)c1 |  | pH 7.5, 24 °C, added: O2 | 1.9 µM |
| L-lactate oxidase (Aerococcus viridans, UniProt Q44467) | O=C1C(Cl)=CC(=Nc2ccc(O)cc2)C=C1Cl |  | pH 6.5, 22 °C, varied electron acceptor, apparent, added: L-lactic acid 200 mM | 1600 µM |
| MilB F17Y (Streptomyces rimofaciens) | Nc1ccn([C@@H]2O[C@H](COP(=O)(O)O)[C@@H](O)[C@H]2O)c(=O)n1 |  | pH 7.5, 37 °C | 4500 µM |
| B5 (nitrilase Y142A) | Cc1cccc(C#N)c1 |  | pH 7.5, 25 °C | 612 µM |
| B6 (Lxyl-p1-1 A72T) | [H][C@]12[C@H](OC(=O)c3ccccc3)[C@]3(O)C[C@H](OC(=O)[C@H](O)[C@@H](NC(=O)c4ccccc4)c4ccccc4)C(C)=C([C@@H](O)C(=O)[C@]1(C)[C@@H](O[C@@H]1OC[C@@H](O)[C@H](O)[C@H]1O)C[C@@]1([H])OC[C@@]21OC(C)=O)C3(C)C |  |  | 1180 µM |
| protein I196L (UniProt Q52060) | CC=O | lysate | not purified, added: CoA, NAD+ | 20300 µM |
| B7 (enzyme) | Nc1ncnc2c1ncn2[C@@H]1O[C@H](COP(=O)(O)OP(=O)(O)OP(=O)(O)O)[C@@H](O)[C@H]1O |  |  | 76.2 µM |
| tgt C145V/T146V/V217G (Escherichia coli) | Nc1nc2nc[nH]c2c(=O)[nH]1 |  | pH 7.3, 37 °C | 2.09 µM |
| B8 (enzyme Q449A) | OC[C@H]1O[C@@](CO)(O[C@H]2O[C@H](CO)[C@@H](O)[C@H](O)[C@H]2O)[C@@H](O)[C@@H]1O |  | pH 5.5, 50 °C, apparent | 21000 µM |
| Cj1427c (Campylobacter jejuni, UniProt Q0P8I7) | Nc1nc2c(ncn2[C@@H]2O[C@H](COP(=O)(O)OP(=O)(O)O[C@H]3O[C@H]([C@H](O)CO)[C@@H](O)[C@H](O)[C@@H]3O)[C@@H](O)[C@H]2O)c(=O)[nH]1 |  | pH 7.4, 30 °C, apparent | 63 µM |
| waaG (Escherichia coli, UniProt P25740) | O=c1ccn([C@@H]2O[C@H](CO[P@@](=O)(O)O[P@@](=O)(O)O[C@H]3O[C@H](CO)[C@@H](O)[C@H](O)[C@H]3O)[C@@H](O)[C@H]2O)c(=O)[nH]1 |  | pH 7.5, 25 °C, apparent | 162 µM |

Excerpt of the above:
| Molecule | substrate | test system | setting | Km |
| --- | --- | --- | --- | --- |
| B6 (Lxyl-p1-1 A72T) | [H][C@]12[C@H](OC(=O)c3ccccc3)[C@]3(O)C[C@H](OC(=O)[C@H](O)[C@@H](NC(=O)c4ccccc4)c4ccccc4)C(C)=C([C@@H](O)C(=O)[C@]1(C)[C@@H](O[C@@H]1OC[C@@H](O)[C@H](O)[C@H]1O)C[C@@]1([H])OC[C@@]21OC(C)=O)C3(C)C |  |  | 1180 µM |
| protein I196L (UniProt Q52060) | CC=O | lysate | not purified, added: CoA, NAD+ | 20300 µM |
| B7 (enzyme) | Nc1ncnc2c1ncn2[C@@H]1O[C@H](COP(=O)(O)OP(=O)(O)OP(=O)(O)O)[C@@H](O)[C@H]1O |  |  | 76.2 µM |
